Experimental data of several laboratories.
Each numbered part is a random draw from the data of one study; scales do not carry over between parts. Several values in a cell are separate wells, animals, samples, runs or records.

Block 1
SMILES: C[C@@H]1CN(c2ccc(-c3cc(C(=O)NCCOCCOCCOCCOCCOCCOCCNC(=O)/C=C/c4[nH]cc(C(=O)N[C@@H](CC(N)=O)c5ccc(F)c(Cl)c5)c4-c4ccc(Cl)cc4F)ccc3F)cc2NC(=O)c2ccc(F)cc2C(F)(F)F)C[C@H](C)N1C
Read-out: thermal unfolding
Method: differential scanning fluorimetry
Tested at: 5.5 µM
Direction: higher = more unfolded
DCAF1: DDB1- and CUL4-associated factor 1 (DCAF1, Homo sapiens, UniProt Q9Y4B6)
Chain of UniProt Q9Y4B6 (whole entry, looked up): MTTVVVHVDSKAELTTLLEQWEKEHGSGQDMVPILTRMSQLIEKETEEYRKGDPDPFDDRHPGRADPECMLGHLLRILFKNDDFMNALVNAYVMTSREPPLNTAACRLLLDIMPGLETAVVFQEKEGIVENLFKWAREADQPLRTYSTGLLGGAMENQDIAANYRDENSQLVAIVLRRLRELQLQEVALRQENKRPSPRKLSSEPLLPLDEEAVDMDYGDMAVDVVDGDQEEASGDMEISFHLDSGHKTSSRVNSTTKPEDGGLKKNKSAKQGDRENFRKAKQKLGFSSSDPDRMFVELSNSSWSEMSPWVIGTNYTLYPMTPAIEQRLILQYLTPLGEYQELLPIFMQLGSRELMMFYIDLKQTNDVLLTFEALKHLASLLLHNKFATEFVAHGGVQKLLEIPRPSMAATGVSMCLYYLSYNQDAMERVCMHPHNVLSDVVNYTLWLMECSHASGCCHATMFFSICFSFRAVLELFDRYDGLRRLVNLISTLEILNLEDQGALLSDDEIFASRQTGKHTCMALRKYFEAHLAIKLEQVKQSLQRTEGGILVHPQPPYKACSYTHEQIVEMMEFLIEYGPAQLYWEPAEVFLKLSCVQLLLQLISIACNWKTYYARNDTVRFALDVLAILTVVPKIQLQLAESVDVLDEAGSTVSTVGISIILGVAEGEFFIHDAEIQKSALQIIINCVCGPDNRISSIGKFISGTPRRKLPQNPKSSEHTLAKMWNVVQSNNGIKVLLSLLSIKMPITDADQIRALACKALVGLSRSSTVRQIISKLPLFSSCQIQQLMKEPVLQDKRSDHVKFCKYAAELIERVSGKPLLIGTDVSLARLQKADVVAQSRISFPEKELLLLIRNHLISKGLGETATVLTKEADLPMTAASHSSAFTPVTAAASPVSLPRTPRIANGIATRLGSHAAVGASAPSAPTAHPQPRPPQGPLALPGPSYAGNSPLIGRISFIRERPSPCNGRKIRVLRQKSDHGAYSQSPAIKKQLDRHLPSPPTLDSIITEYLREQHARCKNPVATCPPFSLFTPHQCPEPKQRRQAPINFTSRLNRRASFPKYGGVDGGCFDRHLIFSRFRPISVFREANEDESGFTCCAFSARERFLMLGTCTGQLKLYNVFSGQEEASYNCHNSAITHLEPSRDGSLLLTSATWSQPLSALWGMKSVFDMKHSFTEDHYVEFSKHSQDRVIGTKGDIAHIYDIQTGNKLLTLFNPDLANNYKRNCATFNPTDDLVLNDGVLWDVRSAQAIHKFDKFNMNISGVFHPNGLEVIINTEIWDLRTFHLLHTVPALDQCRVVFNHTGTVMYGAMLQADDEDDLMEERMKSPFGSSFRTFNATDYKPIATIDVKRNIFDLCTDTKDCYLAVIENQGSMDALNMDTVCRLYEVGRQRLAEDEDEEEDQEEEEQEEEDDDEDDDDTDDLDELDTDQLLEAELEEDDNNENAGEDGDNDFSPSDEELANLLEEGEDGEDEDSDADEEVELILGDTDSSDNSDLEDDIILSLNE
WDR5: WD repeat-containing protein 5 (WDR5, Homo sapiens, UniProt P61964)
| target | temperature | SYPRO Orange fluorescence [a.u.] |
| --- | --- | --- |
| DCAF1 | 30.6 °C | 8560 |
| DCAF1 | 56.81 °C | 33500 |
| DCAF1 | 43.4 °C | 13800 |
| WDR5 | 64.41 °C | 15800 |
| WDR5 | 56.41 °C | 16100 |
| DCAF1 | 77.61 °C | 41600 |
| WDR5 | 93.81 °C | 49600 |

Block 2
SMILES: Cc1ncsc1-c1ccc(C(CO)NC(=O)C2CC(O)CN2C(=O)C(C(C)C)n2cc(-c3ccc(COc4c(-c5c(C)c(F)cc6[nH]ncc56)c(C5CC5)cc5c(N6CC7CC6CN7)nc(OC6CCOCC6)nc45)cc3)nn2)cc1 (stereo not drawn)
Time: 6 days
| cell line | read-out | method | tested at | baseline | viability |
| --- | --- | --- | --- | --- | --- |
| HCT-116 | cell growth or viability | ATP luminescence | 3 µM |  | 8.98% and 6.62% and 6.35% and 7.42% |
| SK-CO-1 | cell growth or viability | ATP luminescence | 10 nM |  | 85.1% and 95.9% and 99.9% and 116% |
| GP5d | cell growth or viability | ATP luminescence | 30 nM |  | 50.8% and 31.9% and 39.9% and 49.6% |
| AsPC-1 |  | CellTiter-Glo | 10 µM | DMSO | 3.55% and 3.68% and 3.93% |
| HPAC | cell growth or viability | ATP luminescence | 1 nM |  | 71.1% and 69.6% and 48.5% and 54.6% |
| SW-403 | cell growth or viability | ATP luminescence | 10 µM |  | 2.04% and 1.42% and 1.55% and 1.4% |

Single results of other studies
| Compound | tested on | test | system | conditions | measurement | value |
| --- | --- | --- | --- | --- | --- | --- |
| Cc1ccc(O)c(C)c1-c1cnc2[nH]c(-c3cnc(N4CCC(CN5CCN(c6ccc(NC7CCC(=O)NC7=O)cc6F)CC5)CC4)nc3)cc2c1C#N (stereo not drawn) |  |  | Beagle dog, male, plasma | oral, 5 mg/kg, intravenous and oral dosing | oral bioavailability | 9.4% |
| FC(F)(F)c1ccc(C2=NOC3(NC(c4ccccc4)=NO3)N2c2ccccc2)cc1 (stereo not drawn) | HEK293-A | cell growth or viability, ATP luminescence |  | 10 µM, 72 h | viability | > 75% |
| Cc1ccc(O)c(C)c1-c1cnc2[nH]c(-c3cnc(N4CCC(CN5CCN(c6cc7c(cc6F)c(N6CCC(=O)NC6=O)nn7C)CC5)CC4)nc3)cc2c1C#N |  |  | female CD-1 mouse, plasma | oral, 20 mg/kg | bioavailability | 71.8% |
| Cc1ccc(O)c(C)c1-c1cnc2[nH]c(-c3cnc(N4CCC5(CC4)CC(N4CCN(c6ccc(N[C@H]7CCC(=O)NC7=O)cc6F)CC4)CO5)nc3)cc2c1C#N (single isomer, unassigned) | SW1463 | cell proliferation |  | 41.15 nM | inhibition | 10.5% |
| Cc1ccc(O)c(C)c1-c1cnc2[nH]c(-c3cnc(N4CCC(CN5CCN(c6ccc7c(c6)C(=O)N(C6CCC(=O)NC6=O)C7=O)CC5)CC4)nc3)cc2c1C#N (stereo not drawn) |  |  | female CD-1 mouse, plasma | oral, 60 mg/kg | bioavailability | 67% |

A few entries again (block 1):
| target | temperature | SYPRO Orange fluorescence [a.u.] |
| --- | --- | --- |
| DCAF1 | 43.4 °C | 13800 |
| WDR5 | 56.41 °C | 16100 |
| DCAF1 | 56.81 °C | 33500 |
